Measured values of several laboratories.
Lines come from different studies, so protocols differ.

| Structure (SMILES) | assay | system | setting | measurement | value |
| --- | --- | --- | --- | --- | --- |
| CC(=O)O[C@H]1C(=O)[C@@]2(C)[C@H]([C@H](OC(=O)c3ccccc3)[C@]3(O)C[C@H](OC(=O)[C@H](O)[C@@H](NC(=O)c4ccccc4)c4ccccc4)C(C)=C1C3(C)C)[C@]1(OC(C)=O)CO[C@@H]1C[C@@H]2O | measured: Alopecia | patients with advanced solid tumours | intravenous, dose not given, all grades, possibly related to drug | adverse event incidence | 28% |
| CC(=O)N(C)[C@H]1CCN(C(=O)c2cnc3c(c2)C[C@](C)(c2ccc(F)cc2)N3)C1 | measured: Hematoma | human | oral, 30 mg once daily | adverse event duration | 11 days |
| CC(C)C[C@H](NC(=O)CNC(=O)c1cc(Cl)ccc1Cl)B(O)O |  | newly diagnosed multiple myeloma patients | oral, dose not given, Nausea, maintenance | adverse events all grades | 39% |
| NCCONC(=O)[C@@H]1CC[C@@H]2CN1C(=O)N2OS(=O)(=O)O | measured: Severe severity | healthy Chinese men | intravenous, 1 g, treatment-related | adverse event incidence | 0% |
| C=CC[C@@H]1/C=C(\C)C[C@H](C)C[C@H](OC)[C@H]2O[C@@](O)(C(=O)C(=O)N3CCCC[C@H]3C(=O)O[C@H](/C(C)=C/[C@@H]3CC[C@@H](O)[C@H](OC)C3)[C@H](C)[C@@H](O)CC1=O)[C@H](C)C[C@@H]2OC | measured: tremors | kidney transplant recipients | oral, dose not given | adverse drug reactions | 30% |
| O=C(c1cccnc1-c1ccncc1)N1CCC(O)(Cc2ccccc2)CC1 |  | healthy Japanese adults | oral, dose not given, 21 days | adverse events leading to discontinuation | 0% |
| CC#CC(=O)N[C@H]1CCCN(c2c(F)cc(C(N)=O)c3[nH]c(C)c(C)c23)C1 |  | healthy volunteers | oral, 3 mg single dose, SAD phase I | adverse events | 33.3% |
| CCO[C@H]1CCN(Cc2c(OC)cc(C)c3[nH]ccc23)[C@H](c2ccc(C(=O)O)cc2)C1 | measured: abdominal discomfort | PNH patients with active haemolysis | oral, 100 mg, extension phase | adverse event incidence | 40% |
| C[C@H]1CNCCCN1S(=O)(=O)c1cccc2cncc(F)c12 | measured: Miliaria | healthy adult men | topical ocular, 1 drop per eye twice daily, 8 days | adverse events | 5.6% |
| Cc1cc(C)c(CNC(=O)c2cc(Cl)c3c(c2C)O[C@@](C)([C@H]2CC[C@H](N(C)C)CC2)O3)c(=O)[nH]1 |  | relapsed/refractory NHL patients | oral, 200 mg once daily, onset after cycle 1 day 1 | adverse event Hypertension | 20.8% |
| Cc1nc(-c2ccc(OCC(C)C)c(C#N)c2)sc1C(=O)O |  | healthy Chinese subjects | oral, 40 mg, fed | adverse drug reaction incidence | 25% |
| O=C1CCc2ccc(OCCCCN3CCN(c4cccc(Cl)c4Cl)CC3)cc2N1 | measured: Constipation | genotyped patients, CYP2D6 ultrarapid metabolizers | dose not given, long-acting oral or depot | adverse event incidence | 0% |
| Cc1c(Cl)c(C)[n+]([O-])c(Cl)c1-c1noc(-c2cc(O)c(O)c([N+](=O)[O-])c2)n1 | measured: Presyncope | healthy Caucasian subjects | oral, 50 mg, 20 days | adverse drug reaction incidence | 6.7% |
| Cc1cc(Nc2ccc(S(F)(F)(F)(F)F)cc2)n2nc(C(C)(F)F)nc2n1 |  | Plasmodium falciparum malaria patients | oral, 400 mg | adverse event Asthenia | 7.7% |
| C=CC(=O)N1CCC(c2ccc(C(N)=O)c(-c3ccc(Oc4ccccc4)cc3)n2)CC1 |  | relapsed/refractory mantle cell lymphoma patients | oral, dose not given, part, all doses, CTCAE v4.03 | adverse event rate | 65.6% |
